{"data": "Results gathered from unrelated publications", "T1": "ssDNA, aptamer; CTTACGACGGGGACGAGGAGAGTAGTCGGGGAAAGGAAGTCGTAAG", "note": "“And” joins repeats or separate records; there may be more than shown. ± gives the spread as reported.", "sequence of UniProt P51575 (whole entry, unmodified, looked up)": "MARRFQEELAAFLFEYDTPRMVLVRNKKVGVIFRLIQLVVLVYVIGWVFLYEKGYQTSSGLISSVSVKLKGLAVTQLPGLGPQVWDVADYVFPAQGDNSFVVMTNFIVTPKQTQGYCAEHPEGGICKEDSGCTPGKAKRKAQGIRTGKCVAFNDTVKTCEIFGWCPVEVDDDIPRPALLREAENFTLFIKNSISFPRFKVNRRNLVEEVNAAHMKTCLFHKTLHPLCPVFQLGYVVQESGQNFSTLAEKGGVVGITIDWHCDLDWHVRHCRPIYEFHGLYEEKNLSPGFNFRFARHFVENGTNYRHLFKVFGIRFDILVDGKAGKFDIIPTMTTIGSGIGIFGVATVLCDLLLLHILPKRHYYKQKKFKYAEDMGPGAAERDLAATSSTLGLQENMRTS", "sequence of UniProt P45983 (whole entry, looked up)": "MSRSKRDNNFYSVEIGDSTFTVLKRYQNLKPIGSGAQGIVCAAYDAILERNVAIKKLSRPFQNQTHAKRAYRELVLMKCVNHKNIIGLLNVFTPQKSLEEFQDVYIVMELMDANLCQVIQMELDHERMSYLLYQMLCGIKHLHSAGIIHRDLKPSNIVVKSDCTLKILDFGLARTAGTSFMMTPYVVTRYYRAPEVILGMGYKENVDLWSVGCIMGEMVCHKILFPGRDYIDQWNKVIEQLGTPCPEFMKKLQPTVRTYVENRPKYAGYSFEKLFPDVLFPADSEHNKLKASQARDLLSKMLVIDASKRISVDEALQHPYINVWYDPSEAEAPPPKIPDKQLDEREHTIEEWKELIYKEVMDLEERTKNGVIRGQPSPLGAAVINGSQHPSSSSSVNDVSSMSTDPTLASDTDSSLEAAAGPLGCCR", "sequence of UniProt P0A8V2 (whole entry, looked up)": "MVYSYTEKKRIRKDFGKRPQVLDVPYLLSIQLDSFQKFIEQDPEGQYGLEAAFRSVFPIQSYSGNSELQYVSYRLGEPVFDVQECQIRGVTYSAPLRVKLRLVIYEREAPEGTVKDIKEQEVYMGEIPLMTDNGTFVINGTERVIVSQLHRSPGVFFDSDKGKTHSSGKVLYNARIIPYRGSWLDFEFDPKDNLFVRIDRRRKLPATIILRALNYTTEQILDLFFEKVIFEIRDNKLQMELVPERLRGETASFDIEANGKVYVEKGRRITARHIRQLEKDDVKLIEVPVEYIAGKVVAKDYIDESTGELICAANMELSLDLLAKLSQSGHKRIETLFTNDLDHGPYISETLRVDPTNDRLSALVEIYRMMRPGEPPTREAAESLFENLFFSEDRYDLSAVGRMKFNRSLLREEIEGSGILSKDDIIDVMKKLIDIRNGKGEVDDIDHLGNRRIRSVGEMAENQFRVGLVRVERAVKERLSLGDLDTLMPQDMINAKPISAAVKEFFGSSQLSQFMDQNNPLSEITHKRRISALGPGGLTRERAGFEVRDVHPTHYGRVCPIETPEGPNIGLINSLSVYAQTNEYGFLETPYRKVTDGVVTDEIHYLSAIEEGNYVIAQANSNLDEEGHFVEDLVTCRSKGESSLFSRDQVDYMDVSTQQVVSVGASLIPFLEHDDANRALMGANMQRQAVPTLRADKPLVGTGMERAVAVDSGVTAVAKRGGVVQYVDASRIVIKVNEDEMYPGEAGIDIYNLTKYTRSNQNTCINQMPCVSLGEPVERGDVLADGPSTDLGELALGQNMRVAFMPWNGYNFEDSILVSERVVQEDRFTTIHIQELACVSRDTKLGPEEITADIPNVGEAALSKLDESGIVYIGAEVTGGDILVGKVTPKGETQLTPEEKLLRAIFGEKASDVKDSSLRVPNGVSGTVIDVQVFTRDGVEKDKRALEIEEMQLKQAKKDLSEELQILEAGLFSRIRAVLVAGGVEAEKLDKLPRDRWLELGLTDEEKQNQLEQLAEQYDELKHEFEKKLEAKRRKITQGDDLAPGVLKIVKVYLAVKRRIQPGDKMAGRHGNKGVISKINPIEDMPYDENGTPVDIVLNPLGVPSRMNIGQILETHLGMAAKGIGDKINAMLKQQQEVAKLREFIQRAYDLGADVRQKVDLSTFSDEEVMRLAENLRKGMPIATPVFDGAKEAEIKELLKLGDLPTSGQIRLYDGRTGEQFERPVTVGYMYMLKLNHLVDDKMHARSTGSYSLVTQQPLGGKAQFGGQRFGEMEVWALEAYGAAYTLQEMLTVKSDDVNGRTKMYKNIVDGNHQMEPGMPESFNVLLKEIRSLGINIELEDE", "sequence of UniProt Q96EB6 (whole entry, looked up)": "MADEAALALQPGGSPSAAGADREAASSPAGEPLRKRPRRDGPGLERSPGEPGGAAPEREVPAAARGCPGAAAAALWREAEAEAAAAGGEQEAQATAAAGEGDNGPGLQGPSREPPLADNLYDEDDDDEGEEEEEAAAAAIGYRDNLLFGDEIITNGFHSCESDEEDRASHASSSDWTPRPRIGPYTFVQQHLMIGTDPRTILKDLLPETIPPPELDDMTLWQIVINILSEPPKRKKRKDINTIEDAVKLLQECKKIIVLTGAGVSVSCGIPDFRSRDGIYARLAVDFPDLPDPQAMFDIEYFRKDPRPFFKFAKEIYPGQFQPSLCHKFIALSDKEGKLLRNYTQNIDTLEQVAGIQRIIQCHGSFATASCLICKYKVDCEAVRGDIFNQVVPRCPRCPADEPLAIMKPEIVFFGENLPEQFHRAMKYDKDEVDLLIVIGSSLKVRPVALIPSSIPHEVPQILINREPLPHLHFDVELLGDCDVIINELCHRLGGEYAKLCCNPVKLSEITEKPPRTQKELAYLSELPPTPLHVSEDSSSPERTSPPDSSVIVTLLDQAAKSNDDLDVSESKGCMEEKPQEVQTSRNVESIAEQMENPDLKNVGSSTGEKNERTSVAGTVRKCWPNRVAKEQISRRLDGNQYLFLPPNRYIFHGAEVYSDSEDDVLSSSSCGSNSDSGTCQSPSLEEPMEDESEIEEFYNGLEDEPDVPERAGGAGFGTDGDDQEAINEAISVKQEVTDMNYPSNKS", "sequence of UniProt Q07011 (whole entry, looked up)": "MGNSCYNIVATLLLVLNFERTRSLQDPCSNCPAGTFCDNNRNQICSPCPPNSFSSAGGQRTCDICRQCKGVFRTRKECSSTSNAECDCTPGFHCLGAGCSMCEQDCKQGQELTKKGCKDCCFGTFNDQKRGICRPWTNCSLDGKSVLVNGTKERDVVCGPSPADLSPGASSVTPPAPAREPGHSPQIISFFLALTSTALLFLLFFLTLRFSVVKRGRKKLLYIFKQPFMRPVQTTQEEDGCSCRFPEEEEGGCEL", "sequence of UniProt Q16774 (whole entry, unmodified, looked up)": "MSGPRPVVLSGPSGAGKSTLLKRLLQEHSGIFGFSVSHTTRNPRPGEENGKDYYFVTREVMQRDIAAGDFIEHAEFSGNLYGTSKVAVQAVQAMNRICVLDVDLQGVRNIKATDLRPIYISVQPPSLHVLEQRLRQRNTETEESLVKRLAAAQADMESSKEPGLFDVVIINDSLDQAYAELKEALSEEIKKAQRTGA", "sequence of UniProt P47898 (whole entry, looked up)": "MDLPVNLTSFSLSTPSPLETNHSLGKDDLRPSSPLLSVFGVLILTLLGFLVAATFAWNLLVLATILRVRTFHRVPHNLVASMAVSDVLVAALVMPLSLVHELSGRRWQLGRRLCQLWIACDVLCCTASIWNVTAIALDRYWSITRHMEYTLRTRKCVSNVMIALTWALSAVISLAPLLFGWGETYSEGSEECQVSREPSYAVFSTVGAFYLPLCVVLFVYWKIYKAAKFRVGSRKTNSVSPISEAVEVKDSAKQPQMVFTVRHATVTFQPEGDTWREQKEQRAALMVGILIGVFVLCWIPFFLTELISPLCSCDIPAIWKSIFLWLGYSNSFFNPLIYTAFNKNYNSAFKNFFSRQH", "sequence of UniProt P51817 (whole entry, looked up)": "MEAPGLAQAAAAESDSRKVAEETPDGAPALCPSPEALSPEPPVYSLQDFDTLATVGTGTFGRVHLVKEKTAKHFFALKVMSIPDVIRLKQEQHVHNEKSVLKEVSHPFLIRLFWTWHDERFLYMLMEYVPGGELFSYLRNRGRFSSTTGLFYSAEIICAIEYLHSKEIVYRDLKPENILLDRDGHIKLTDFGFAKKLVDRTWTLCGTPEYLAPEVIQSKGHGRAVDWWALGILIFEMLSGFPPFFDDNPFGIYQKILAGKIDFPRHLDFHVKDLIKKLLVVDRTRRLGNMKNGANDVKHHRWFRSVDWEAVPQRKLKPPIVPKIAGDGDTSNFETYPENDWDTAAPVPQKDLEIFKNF", "sequence of UniProt Q8IUN9 (whole entry, looked up)": "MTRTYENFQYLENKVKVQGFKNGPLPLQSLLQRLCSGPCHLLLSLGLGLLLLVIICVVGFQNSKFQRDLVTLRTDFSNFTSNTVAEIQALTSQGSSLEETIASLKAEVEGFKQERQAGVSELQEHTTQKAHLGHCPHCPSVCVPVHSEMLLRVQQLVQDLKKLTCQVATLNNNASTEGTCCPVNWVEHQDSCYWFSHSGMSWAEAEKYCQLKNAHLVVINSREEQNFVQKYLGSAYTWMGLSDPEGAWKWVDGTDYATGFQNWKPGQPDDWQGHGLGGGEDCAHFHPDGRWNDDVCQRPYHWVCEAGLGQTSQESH", "sequence of UniProt Q96LB2 (whole entry, looked up)": "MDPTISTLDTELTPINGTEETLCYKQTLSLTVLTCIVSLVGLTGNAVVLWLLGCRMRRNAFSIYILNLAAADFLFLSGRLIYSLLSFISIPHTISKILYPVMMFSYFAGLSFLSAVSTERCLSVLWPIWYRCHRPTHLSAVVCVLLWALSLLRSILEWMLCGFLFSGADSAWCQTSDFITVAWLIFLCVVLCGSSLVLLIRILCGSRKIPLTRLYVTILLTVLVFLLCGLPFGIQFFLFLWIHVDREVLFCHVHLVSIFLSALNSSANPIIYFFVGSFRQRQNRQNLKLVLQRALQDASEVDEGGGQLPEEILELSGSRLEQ"}
{"Compound": "Nc1ncnc2c1ncn2[C@@H]1O[C@H](COP(=O)(O)OP(=O)(O)O)[C@@H](O)[C@H]1O", "target or system": "GUK1 (Homo sapiens, UniProt Q16774)", "test": "binding, isothermal titration calorimetry", "setting": "molar ratio 2.83, fitted curve", "quantity": "ΔH", "result": "-0.181 kcal/mol"}
{"Compound": "NC(=O)C[C@H](N)C(=O)O", "target or system": "Methyl-accepting chemotaxis protein, ligand-binding domain (Pectobacterium atrosepticum, UniProt Q6D6I9)", "test": "binding, thermal shift", "setting": "ligand-binding domain", "quantity": "ΔTm", "result": "binds"}
{"Compound": "Nc1ncnc2c1ncn2[C@@H]1O[C@H](COP(=O)(O)OP(=O)(O)OP(=O)(O)O)[C@@H](O)[C@H]1O", "target or system": "T1, ssDNA, aptamer", "test": "ITC", "quantity": "Kd", "result": "884 nM"}
{"Compound": "Cn1cc(-c2ccc(-c3cncc(Cl)c3N3CCC4(CCNC4=O)CC3)cc2)cn1", "target or system": "COLO 205", "test": "gene expression, microarray, refers to: SLC9A1 mRNA", "setting": "concentration not given, 2 h", "scale": "baseline: untreated cells", "quantity": "log2 fold change", "result": -2.89}
{"Compound": "Clc1cccc(OC[C@@H]2CN(CCN3CCc4ccccc43)CCO2)c1", "target or system": "HTR5A (Homo sapiens, UniProt P47898)", "test": "radioligand binding", "setting": "concentration not given, with: [3H]LSD", "quantity": "inhibition", "result": "5.5%"}
{"Compound": "C[C@H]1O[C@@H](O[C@H]2CC[C@@]3(C)[C@@H](CC[C@]4(C)[C@@H]3C=CC3=C5CC(C)(C)CC[C@]5(CO)[C@@H](O)C[C@]34C)[C@]2(C)CO)[C@H](O)[C@@H](O[C@@H]2O[C@H](CO)[C@@H](O)[C@H](O)[C@H]2O)[C@H]1O", "target or system": "SIRT1 (Homo sapiens, UniProt Q96EB6)", "test": "binding, microscale thermophoresis", "setting": "161 nM", "quantity": "MST normalised fluorescence", "result": "884 a.u."}
{"Compound": "Nc1ncnc2c1ncn2[C@@H]1O[C@H](COP(=O)(O)CP(=O)(O)OP(=O)(O)O)[C@@H](O)[C@H]1O", "target or system": "P2X purinoceptor 1 (P2RX1, Homo sapiens, UniProt P51575, E282A)", "test": "calcium influx", "setting": "1 µM", "scale": "baseline: ionomycin response", "quantity": "calcium influx", "result": "94.9% and 72.7% and 78%"}
{"Compound": "COc1cc(F)ccc1-c1ncnc(Nc2cccc(C[S@](C)(=N)=O)c2)n1", "target or system": "PRKX (Homo sapiens, UniProt P51817)", "test": "kinase activity", "setting": "10 µM, with: 10 µM ATP", "quantity": "remaining activity", "result": "81%"}
{"Compound": "CCN1CCC[C@H]1CNC(=O)c1c(O)c(Cl)cc(Cl)c1OC", "target or system": "MRGPRX1 (Homo sapiens, UniProt Q96LB2)", "test": "β-arrestin recruitment, TANGO luminescence", "setting": "concentration not given", "scale": "baseline: basal luminescence", "quantity": "log2 fold change", "result": 0.045}
{"Compound": "CC(=O)N[C@H]1[C@@H](OC(C)C(N)C(=O)O)O[C@H](CO[C@]2(C(=O)O)C[C@H](O)[C@@H](NC(C)=O)[C@H]([C@H](O)[C@H](O)CO)O2)[C@H](O)[C@@H]1O (stereo partly shown)", "target or system": "CLEC10A, carbohydrate recognition domain (Homo sapiens, UniProt Q8IUN9)", "test": "binding to carbohydrate recognition domain, ITC, single-site model", "setting": "concentration not given, 293 K", "quantity": "binding stoichiometry", "result": "1.36 ± 0.06 sites"}
{"Compound": "CCCC[C@@H]1NC(=O)[C@H](Cc2ccc(O)cc2)NC(=O)[C@H](C)N(C)C(=O)[C@H](CC(=O)O)NC(=O)[C@H](C)NC(=O)[C@H](Cc2ccccc2)NC(=O)[C@@H]2CSCCC(=O)N3CN(CN(C3)C(=O)CCSC[C@H](NC(C)=O)C(=O)N[C@@H](CC(C)(C)C)C(=O)N3CCC[C@H]3C(=O)N[C@@H](CCC(=O)O)C(=O)N[C@H](CCCCNC(=O)CCc3cn(CCOCCOCCOCCOCCOCCC(=O)N[C@H]4CSCCC(=O)N5CN6CN(C5)C(=O)CCSC[C@H](NC(=O)[C@@H](CC(=O)O)NC(=O)[C@H](Cc5cccc7ccccc57)NC(=O)[C@@H]5CCCN5C4=O)C(=O)N[C@@H](CCSC)C(=O)N[C@@H](CCCCNC(=N)N)C(=O)N[C@@H](CC(=O)O)C(=O)N[C@@H](Cc4c[nH]c5ccccc45)C(=O)N[C@@H](CO)C(=O)N[C@@H]([C@@H](C)O)C(=O)N4CCC[C@H]4C(=O)N4C[C@H](O)C[C@H]4C(=O)N[C@@H](Cc4c[nH]c5ccccc45)C(=O)N[C@H](C(N)=O)CSCCC6=O)nn3)C(=O)N3CCC[C@H]3C(=O)N[C@@H](Cc3ccc(O)cc3)C(=O)N2)C(=O)CCSC[C@@H](C(N)=O)NC1=O", "target or system": "Tumor necrosis factor receptor superfamily member 9/Nectin-4 (Homo sapiens, UniProt Q07011+Q96NY8)", "test": "reporter gene, agonist", "system": "HT-1376 coculture with reporter cells", "scale": "baseline: background", "quantity": "Emax", "result": "31 fold"}
{"Compound": "Cc1cc(-c2cccc(-n3cc(COC(=O)[C@]4(C)C=C(C(=O)OC(C)(C)C)C(=O)CC4)nn3)c2)c(C)c2c1CNCC2", "target or system": "MAPK8 (Homo sapiens, UniProt P45983)", "test": "D-peptide binding, inhibitor, FP peptide displacement", "setting": "50 µM", "scale": "lower is stronger displacement", "quantity": "fraction bound", "result": 0.207}
{"Compound": "Nc1nc2c(ncn2[C@@H]2O[C@H](COP(=O)(O)OP(=O)(O)OP(=O)(O)O)[C@@H](O)[C@H]2O)c(=O)[nH]1", "target or system": "DNA-directed RNA polymerase subunit beta' / DNA-directed RNA polymerase subunit beta (rpoC/rpoB, Escherichia coli, UniProt P0A8T7+P0A8V2)", "test": "RNA extension, denaturing gel", "system": "Escherichia coli, elongation complex, 6-MI template", "setting": "5 µM, 10 min, 25 °C", "quantity": "incorporation efficiency", "result": "88%"}
{"note": "Repeated from above:"}
{"Compound": "CCN1CCC[C@H]1CNC(=O)c1c(O)c(Cl)cc(Cl)c1OC", "target or system": "MRGPRX1 (Homo sapiens, UniProt Q96LB2)", "test": "β-arrestin recruitment, TANGO luminescence", "setting": "concentration not given", "scale": "baseline: basal luminescence", "quantity": "log2 fold change", "result": 0.045}
